Experimental data gathered from unrelated publications.
Parts stem from different laboratories: compare values within a part only. Changes are numbered by the printed parent chain.

Series 1
Target: ABI1, truncated, D143A, DHFR fusion (Arabidopsis thaliana)
Method: DHFR PCA, deep sequencing
Sample: yeast
Notes: methotrexate growth selection, single substitutions
Together with: (+)-ABA 4.8 µM
Baseline: wild-type fitted maximum
Reading: higher = stronger binding
Parent: PYL1, truncated, DHFR fusion (Arabidopsis thaliana); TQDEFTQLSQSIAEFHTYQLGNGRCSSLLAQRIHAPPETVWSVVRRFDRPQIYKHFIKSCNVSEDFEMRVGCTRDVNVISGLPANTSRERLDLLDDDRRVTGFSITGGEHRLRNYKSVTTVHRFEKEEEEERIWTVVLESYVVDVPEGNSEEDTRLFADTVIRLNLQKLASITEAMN; partner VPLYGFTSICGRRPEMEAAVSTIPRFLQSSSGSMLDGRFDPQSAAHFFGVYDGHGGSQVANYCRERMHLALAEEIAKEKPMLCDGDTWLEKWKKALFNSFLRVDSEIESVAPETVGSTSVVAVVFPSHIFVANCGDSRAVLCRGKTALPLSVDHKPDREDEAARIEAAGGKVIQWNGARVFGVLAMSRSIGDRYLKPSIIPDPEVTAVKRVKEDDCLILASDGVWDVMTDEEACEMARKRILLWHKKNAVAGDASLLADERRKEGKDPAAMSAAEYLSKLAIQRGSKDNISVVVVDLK
| Change | relative binding score [%] |
| --- | --- |
| E147H | 63.2 |
| L8H | 27.7 |
| V43R | -3.43 |
| P50Y | 9.14 |
| G102R | -3.59 |

Series 2
Target: Interferon regulatory factor 5, full length, phosphomimetic (IRF5, Homo sapiens, UniProt Q13568-2, residues 1-514, K96S/S451D/S453D/S456D/S462D)
Method: protein-binding microarray
Form: double-stranded DNA, one strand shown
Sample: in vitro
Tested at: 250 nM
Notes: 60-bp whole probe
Together with: salmon DNA 0.4 mg/ml
Baseline: random background probes
Reading: higher = stronger binding
Constant ends, left off below: GCCTAGCAC … GTCTTGATTCGCTTGACGCTGCTG
| Sequence | log fluorescence [z-score] |
| --- | --- |
| TTAGGTCTCGGTTTCGGCTAGTGCTAG | 5.31 |
| CTCAGGTAATATTTCCTGCTGTGCTAG | -0.126 |
| TTAGGTTCCGGACTGGGTTAGTGCTAG | 0.139 |
| TTAGATTTCAGACTGGATTTGTGCTAG | 0.567 |
| GACGGTTTCAGGTATCGGGACGTGCTA | 3.15 |
| TCAGGTCTCCTTTTCCTTTAGTGCTAG | 0.358 |
| GACGGACTGGGGACTGGTGACGTGCTA | -0.728 |

Series 3
Target: Histone acetyltransferase KAT6A, winged helix 2, GST fusion (KAT6A, Homo sapiens, UniProt Q92794, residues 85-181)
Method: protein binding microarray
Form: double-stranded DNA, one strand shown
Sample: in vitro
Tested at: not given
Notes: 8-mer, flanks averaged, mean of 2 arrays, mostly near background
Baseline: not given
Reading: higher = stronger binding
Target sequence (chain): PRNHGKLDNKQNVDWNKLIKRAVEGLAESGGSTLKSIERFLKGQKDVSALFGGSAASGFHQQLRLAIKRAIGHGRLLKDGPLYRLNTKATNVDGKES
| Sequence | E-score |
| --- | --- |
| CACTCGGG | 0.175 |
| CATCGCCC | 0.0572 |
| GAGCGACA | 0.025 |
| AGTCGTCC | -0.176 |
| GAACCCTA | 0.000505 |
| ACAGTAGC | -0.0465 |
| AGGATATA | 0.0145 |
| CAGTCAAG | -0.00948 |
| GCATATGC | 0.0589 |
| TACTGGGA | 0.0349 |
| ACCTCTAC | -0.129 |
| ACTTAGGG | -0.0957 |
| CACACACC | -0.0347 |

Further values, each from its own experiment
| Molecule | target | assay | test system | setting | scale | endpoint | result |
| --- | --- | --- | --- | --- | --- | --- | --- |
| PhoQ, residues 284 288 289 292 302 303 SSYNSA | PhoP, residues 12 14 15 18 19 STWGI (Escherichia coli, UniProt P23836) | Sort-seq, item: YFP reporter | E. coli | PhoQ-PhoP variant library, together with: 10 µM Mg2+ | baseline: high Mg2+ state, higher = stronger signaling | fold induction | 0.378 |

Excerpt of the above (series 3):
| Sequence | E-score |
| --- | --- |
| CATCGCCC | 0.0572 |
| ACCTCTAC | -0.129 |
